# Results from different studies.
# Numbered parts are unrelated; each lists some results of a single study.

# Set 1
# Target: Protein C-ets-1 (ETS1, Homo sapiens, UniProt P14921, residues 1-441, Y397A, full length assumed)
# UniProt P14921, sequence (whole entry, unmodified, looked up): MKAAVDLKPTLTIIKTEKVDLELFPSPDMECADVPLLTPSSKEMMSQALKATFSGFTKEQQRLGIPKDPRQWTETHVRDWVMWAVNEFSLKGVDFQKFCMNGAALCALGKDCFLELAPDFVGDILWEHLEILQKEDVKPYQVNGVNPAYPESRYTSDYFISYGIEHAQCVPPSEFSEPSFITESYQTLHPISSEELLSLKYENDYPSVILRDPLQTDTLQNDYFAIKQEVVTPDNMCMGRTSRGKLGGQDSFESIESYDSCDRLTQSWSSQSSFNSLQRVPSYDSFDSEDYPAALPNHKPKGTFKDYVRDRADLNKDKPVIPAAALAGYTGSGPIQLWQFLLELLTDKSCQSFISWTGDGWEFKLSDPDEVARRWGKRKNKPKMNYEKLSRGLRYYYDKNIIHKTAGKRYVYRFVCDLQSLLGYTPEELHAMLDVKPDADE
# Method: protein-binding microarray
# Molecule type: double-stranded DNA, one strand shown
# Matrix: in vitro
# Tested at: not given
# Notes: k-mer, scored over probes, only values ≥0.25
# Reading: higher = stronger binding
Sequence,E-score
ACGCGCGG,0.259
ACGGAAGT,0.404
CGGATGCC,0.288
CACAACAC,0.29
GGACAAAA,0.28
ACAATTGT,0.342
CGTTTGCA,0.273
CGTGTGTA,0.286

# Set 2
# Target: Prothrombin, mature alpha-thrombin (F2, Homo sapiens, UniProt P00734)
# Method: aptamer microarray, sandwich
# Molecule type: DNA with 2'F-ANA
# Matrix: in vitro
# Tested at: 200 nM
# Notes: whole 15-mer aptamer, many near background
# Added: Cy3 exosite-II aptamer, 400 nM
# Reading: higher = stronger binding
# Sequence: GGTTGGTGTGGTTGG
Modification,mean fluorescence intensity [a.u.]
2'F-ANA at 4 6 8 12 15,456
2'F-ANA at 2 3 4 5 7 9 10,89.2
2'F-ANA at 1 3 5 7 8 10 13 14,46.6
2'F-ANA at 1 4 5 12 14,53.4
2'F-ANA at 1 2 5 7 8 10 14 15,47.4
2'F-ANA at 1 2 4 5 7 11 13 14 15,61.3
2'F-ANA at 2 6 7 13,286
2'F-ANA at 1 2 4 6 10 14,73.1
2'F-ANA at 2 3 6 7 9 11 13 15,434
2'F-ANA at 1 3 4 5 7 9 14 15,103

# Set 3
# Target: Interferon regulatory factor 7, full length, phosphomimetic (IRF7, Homo sapiens, UniProt Q92985, residues 1-503, S101K/S471D/S472D/S475D/S476D/S477D/S483D/S484D/S487D)
# Method: protein-binding microarray
# Molecule type: double-stranded DNA, one strand shown
# Matrix: in vitro
# Tested at: 250 nM
# Notes: 60-bp whole probe
# Added: salmon DNA 0.4 mg/ml
# Baseline: random background probes
# Reading: higher = stronger binding
# Constant ends, left off below: GCCTAGCAC … GTCTTGATTCGCTTGACGCTGCTG
# Residues (chain): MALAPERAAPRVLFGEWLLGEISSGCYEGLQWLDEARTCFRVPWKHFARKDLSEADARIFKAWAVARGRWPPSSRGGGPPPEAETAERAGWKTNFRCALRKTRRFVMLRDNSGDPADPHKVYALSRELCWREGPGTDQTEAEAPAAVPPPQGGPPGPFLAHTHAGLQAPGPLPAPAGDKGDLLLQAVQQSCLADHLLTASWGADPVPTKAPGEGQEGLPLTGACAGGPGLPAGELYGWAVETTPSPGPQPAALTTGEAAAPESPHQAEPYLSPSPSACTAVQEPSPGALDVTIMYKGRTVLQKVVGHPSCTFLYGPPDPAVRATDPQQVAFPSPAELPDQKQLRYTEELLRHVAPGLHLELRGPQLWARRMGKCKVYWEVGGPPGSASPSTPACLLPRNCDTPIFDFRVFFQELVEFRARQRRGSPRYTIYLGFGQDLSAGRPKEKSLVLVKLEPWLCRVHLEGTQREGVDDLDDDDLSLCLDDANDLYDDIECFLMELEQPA
Sequence,log fluorescence [z-score]
GACGCTTTCGGGTTTCGAGACGTGCTA,4.87
TTAGATTGCAGTCTCGATTAGTGCTAG,1.17
TCACATTACAGCTATTTTACTGTGCTA,1.01
TTAGATATCCTTCTCCTTTAGTGCTAG,0.443
TTAGGACTGGGGTTTCAGTTAGTGCTA,-0.000872
TTAGGACTGGGACTGTGTTAGTGCTAG,-0.256
GACGGTTTCGACGTTCGGGACGTGCTA,3.13
TTAGGTATCGGTCTCGGATAGTGCTAG,1.35

# Single results of other studies
Molecule,target,test,test system,conditions,how to read,quantity,value
"PhoQ, residues 284 288 289 292 302 303 MLMVEA","PhoP, residues 12 14 15 18 19 NYFTV (Escherichia coli, UniProt P23836)","Sort-seq, refers to: YFP reporter",E. coli,"PhoQ-PhoP variant library, added: 10 µM Mg2+","baseline: high Mg2+ state, higher = stronger signaling",fold induction,8.94

# Some of these lines once more (set 3):
Sequence,log fluorescence [z-score]
GACGCTTTCGGGTTTCGAGACGTGCTA,4.87
GACGGTTTCGACGTTCGGGACGTGCTA,3.13
